Measurements collected from several papers.
A part holds a random share of what one study measured. Changes are numbered by the printed parent chain.

Series 1 — method: DHFR PCA, deep sequencing; medium: yeast; with: (+)-ABA 1.4 µM; reference: wild-type fitted maximum; reading: higher = stronger binding; measurement: relative binding score
Target: ABI1, truncated, D143A, DHFR fusion (Arabidopsis thaliana)
Notes: methotrexate growth selection, single substitutions
Parent: PYL1, truncated, DHFR fusion (Arabidopsis thaliana); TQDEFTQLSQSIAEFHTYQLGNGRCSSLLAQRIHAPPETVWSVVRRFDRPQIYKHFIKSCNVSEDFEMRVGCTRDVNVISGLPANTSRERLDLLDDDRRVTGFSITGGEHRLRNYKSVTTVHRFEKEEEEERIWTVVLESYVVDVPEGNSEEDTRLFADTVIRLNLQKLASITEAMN; partner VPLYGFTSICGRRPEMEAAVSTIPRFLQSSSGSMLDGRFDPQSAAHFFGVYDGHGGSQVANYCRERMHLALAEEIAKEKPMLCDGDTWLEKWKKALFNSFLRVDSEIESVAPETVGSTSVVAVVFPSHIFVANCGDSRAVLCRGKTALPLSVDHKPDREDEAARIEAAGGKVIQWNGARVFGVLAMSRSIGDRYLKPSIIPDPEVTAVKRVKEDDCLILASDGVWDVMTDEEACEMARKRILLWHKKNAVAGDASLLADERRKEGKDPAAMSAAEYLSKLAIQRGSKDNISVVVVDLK
P37L: 10.1%
S117T: 4.87%
V44D: -2.34%
K168V: 14.6%
H55V: 97%
E64W: 21.3%
W134E: 79.7%

Series 2 — target: CCNB2, cyclin fold, Cln2 fusion (human); method: yeast growth competition, sequencing; medium: yeast; notes: weak parent motif; reference: not given; reading: higher = stronger binding; measurement: normalised enrichment score
Parent: SCAPER docking peptide (human); SNARRSLNFGGST
GNARRSLNFGGST [S1G]: 0.17
SNARRSTNFGGST [L7T]: 0.303
SNAGRSLNFGGST [R4G]: -0.14
SNSRRSLNFGGST [A3S]: -0.219
VNARRSLNFGGST [S1V]: 0.423
SNARVSLNFGGST [R5V]: 0.157
SNARRSLNFCGST [G10C]: 0.3

Series 3 — method: RNA Bind-n-Seq; molecule type: RNA; medium: in vitro; concentration: 200 nM; notes: whole 134-nt RNA, ends assumed; with: 150 mM LiCl; reference: input library; reading: higher = stronger binding; measurement: log2 enrichment; library: 7-deaza-guanosine replaces G
Target: Fragile X messenger ribonucleoprotein 1, C-terminal low-complexity region (Fmr1, Mus musculus, UniProt P35922)
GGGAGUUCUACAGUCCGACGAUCUCCUGUGCUACACAUCGUAUGUACCGAAUCGGAAAAAAGGGGAAAAAAGGAAAAAAGGGGAAAGUAUUAUGUUACGCCGUUCGGAUCUGCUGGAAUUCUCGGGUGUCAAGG: -0.67
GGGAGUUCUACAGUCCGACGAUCUCCUGUGCUACACAUCGUAUGUACCGAAUCGGGGAAAGGGGAAAGGGGUUUUUUUGGGGAAAGUAUUAUGUUACGCCGUUCGGAUCUGCAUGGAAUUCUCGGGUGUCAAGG: 0.891
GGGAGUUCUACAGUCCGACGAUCUCAAGUCCUGUGCUACACAUCGUAUGUACCGAAUCGGAAAAAAAGGAGGUUUGGAAAGUAUUAUGUUACGCCGUUCGGAUCUGCACUUCCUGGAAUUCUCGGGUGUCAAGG: -1.87
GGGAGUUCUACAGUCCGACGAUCGCAGGAAGUAAAAACAAAUGGAAAUGCUUCGGAUAGUGGCAGGGGUGGGGGUUGCUAAGGUAAGGGUGGGAUGGGAGUGGGUAAAGAGUUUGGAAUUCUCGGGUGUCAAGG: 1.55
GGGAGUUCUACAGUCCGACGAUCUCCUGUGCUACACAUCGUAUGUACCGAAUCGGGGUUUGGGGAAAGGGGUUUUUUUGGGGAAAGUAUUAUGUUACGCCGUUCGGAUCUGCAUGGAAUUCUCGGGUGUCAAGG: -0.4
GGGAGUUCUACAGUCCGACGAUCAAGUCCUGUGCUACACAUCGUAUGUACCGAAUCGGAGGAAAAAAAGGAAAAAAAGGAAAGUAUUAUGUUACGCCGUUCGGAUCUGCACUUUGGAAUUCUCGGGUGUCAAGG: -1.02
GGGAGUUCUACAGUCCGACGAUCCAAGUCCUGUGCUACACAUCGUAUGUACCGAAUCGGCCCGGGGCCCGGGGCCCGGGAAAGUAUUAUGUUACGCCGUUCGGAUCUGCACUUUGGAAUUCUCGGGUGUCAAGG: -1.4
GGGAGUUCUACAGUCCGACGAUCGCAGGAAGUAAAAACAAAUGGAAAUGCUUCGGAUGGUGGCAGGGGUGGGGGUUGCUAAGGAAAGGGUGGGAUGGGAGUGGGUAAAGAGUUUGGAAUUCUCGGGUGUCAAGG: 1.24

Mixed results
PhoQ, residues 284 288 289 292 302 303 TTCLQL
fold induction (PhoP, residues 12 14 15 18 19 SMASL (Escherichia coli, UniProt P23836); Sort-seq, item: YFP reporter; E. coli; PhoQ-PhoP variant library, with: 10 µM Mg2+; reference: high Mg2+ state, higher = stronger signaling): 3.8

A few entries again (series 1):
S117T: 4.87%
V44D: -2.34%
